Results of several laboratories.
Compare with care: the assays were run in different laboratories. Numbers after ± are the reported error.

Compound	target or system	test	system	conditions	measurement	value
C=C1C(=O)O[C@H]2[C@H]1CCC(COC(=O)c1ccc(C(F)(F)F)cc1)=C1CC[C@@](C)(O)[C@@H]12	MV4-11	cell viability, alamarBlue		24 h	CC50	1 ± 0.1 µM
O=C(O)C(F)(F)C(F)(F)C(F)(F)C(F)(F)C(F)(F)C(F)(F)C(F)(F)F	BeWo cells			24 h	CC50	673 ± 58.2 µM
COc1cc(Nc2c(C#N)cnc3cc(OCCCN4CCN(C)CC4)c(OC)cc23)c(Cl)cc1Cl	human cells			concentration not given, 2 days	CC50	17.1 µM
O=C(Nc1ccc([N+](=O)[O-])cc1Cl)c1cccc([N+](=O)[O-])c1O	A549				CC50	13.2 µM
CCN(CC)CCNc1ccc(CO)c2sc3ccccc3c(=O)c12	Vero E6, HeLa, HEK293T, Huh7.5	nuclei count		16 h, mean of four cell lines	CC50	11.3 ± 2.73 µM
CN(C)CCOc1ccc(/C(=C(/CCCl)c2ccccc2)c2ccccc2)cc1	human cells			concentration not given, 2 (unit not given)	CC50	17.1 µM
CCC(CC)COC(=O)[C@H](C)N[P@](=O)(OC[C@H]1O[C@@](C#N)(c2ccc3c(N)ncnn23)[C@H](O)[C@@H]1O)Oc1ccccc1	Huh-7			7 days, uninfected, CPE assay format	CC50	15 µM
CN(C)[C@@H](CCOc1cccc2ccccc12)c1ccccc1	human cells			concentration not given, 2 days	CC50	18.1 µM
CN(C(=O)C(Cc1ccccc1)NC(=O)CN1C(=O)NC2(CCCCC2)C1=O)c1ccc(F)cc1 (stereo not shown)	TZM-GFP	XTT		72 h	CC50	> 50 µM
Cc1oncc1C(=O)Nc1ccc(C(F)(F)F)cc1	Huh-7	CPE		7 days	CC50	> 100 µM
CC(C)[C@H](NC(=O)c1cc(Cl)ccc1O)C(=O)Nc1ccc(C(F)(F)F)cc1Cl	A549				CC50	8.34 µM
CN(C)CCCN1c2ccccc2Sc2ccc(Cl)cc21	HepG2	cytotoxicity		48 and 72 h	CC50	10 to 50 µM
CCN(CC)CCN1c2ccccc2Sc2ccc3ccccc3c21	HepG2	cell viability		24 h, 37 °C	CC50	50.8 µM
C[C@H](NP(=O)(OCCOCn1cnc2c(=O)[nH]c(N)nc21)Oc1ccccc1)C(=O)OCc1ccccc1 (stereo partly shown)	MT4	cell growth or viability			CC50	> 150 µM
CN1CCCC(n2nc(Cc3ccc(Cl)cc3)c3ccccc3c2=O)CC1 (stereo not shown)	human cells			concentration not given, 2 (unit not given)	CC50	> 20 µM
CC[C@H](C)[C@H](NC(=O)[C@H](CCCCN)NC(=O)[C@H](CCCCN)NC(=O)[C@H](Cc1ccc(O)cc1)NC(=O)[C@H](CC(C)C)NC(=O)[C@@H]1CCCN1C(=O)[C@H](C)NC(=O)CNC(=O)CNC(=O)[C@H](CO)NC(=O)CNC(=O)CNC(=O)[C@H](CO)NC(=O)[C@H](CCC(=O)O)NC(=O)[C@H](CC(C)C)NC(=O)[C@H](CC(C)C)NC(=O)[C@H](CCCCN)NC(=O)[C@H](CCCCN)NC(=O)[C@@H](NC(=O)[C@@H](NC(=O)[C@H](CCCCN)NC(=O)[C@H](CCCCN)NC(=O)[C@H](Cc1ccc(O)cc1)NC(=O)[C@H](CC(C)C)NC(=O)[C@@H]1CCCN1C(=O)[C@H](C)NC(=O)[C@H](CCC(N)=O)NC(=O)[C@@H](N)CC(C)C)[C@@H](C)CC)[C@@H](C)CC)C(=O)N[C@H](C(=O)N[C@@H](CCCCN)C(=O)N[C@@H](CCCCN)C(=O)N[C@@H](CC(C)C)C(=O)N[C@@H](CC(C)C)C(=O)N[C@@H](CCC(=O)O)C(=O)N[C@@H](CO)C(N)=O)[C@@H](C)CC	MDA-MB-231	resazurin		24 h	CC50	> 32 µM
CC(C)[C@H](NC(=O)c1cc(Cl)ccc1O)C(=O)Nc1ccc([N+](=O)[O-])cc1Cl	A549				CC50	8.32 µM
CC[C@H](C)[C@@H]1NC(=O)[C@H](CO)NC(=O)[C@H](CCC(=O)O)NC(=O)[C@H](CC(C)C)NC(=O)[C@H](CC(C)C)NC(=O)[C@H](CCCCN)NC(=O)[C@H](CCCCN)NC(=O)[C@H]([C@@H](C)CC)NC(=O)[C@H]([C@@H](C)CC)NC(=O)[C@H](CCCCN)NC(=O)[C@H](CCCCN)NC(=O)[C@H](Cc2ccc(O)cc2)NC(=O)[C@H](CC(C)C)NC(=O)[C@@H]2CCCN2C(=O)CNC(=O)CNC(=O)[C@@H](N)CSSC[C@@H](C(N)=O)NC(=O)CNC(=O)CNC(=O)[C@H]([C@@H](C)O)NC(=O)[C@H](CC(C)C)NC(=O)[C@H](CCC(N)=O)NC(=O)[C@H](C)NC(=O)[C@H](Cc2c[nH]c3ccccc23)NC(=O)[C@H](Cc2ccc(O)cc2)NC(=O)[C@H](Cc2c[nH]cn2)NC(=O)[C@H](CCC(=O)O)NC(=O)[C@H](Cc2ccccc2)NC(=O)[C@H]([C@@H](C)O)NC(=O)[C@H](CC(C)C)NC(=O)CNC(=O)CNC(=O)[C@H](CO)NC(=O)CNC(=O)CNC(=O)[C@H](CO)NC(=O)CNC(=O)CNC(=O)[C@H](CCCCN)NC(=O)[C@H](CCCCN)NC(=O)[C@H]([C@@H](C)CC)NC1=O	K562	resazurin		24 h	CC50	5.1 ± 0.2 µM
C[C@H](NC(=O)c1cc(Cl)ccc1O)C(=O)Nc1ccc([N+](=O)[O-])cc1Cl	A549				CC50	> 10 µM
CN[C@@](C)(C[18F])C(=O)O	DU-145 tumour model		host not given, blood	30 min, tumour-bearing	tracer uptake	1.6 %ID/g
CC[C@H](C)[C@H](NC(=O)[C@H](CCCCN)NC(=O)[C@H](CCCCN)NC(=O)[C@H](Cc1ccc(O)cc1)NC(=O)[C@H](CC(C)C)NC(=O)[C@@H]1CCCN1C(=O)[C@H](C)NC(=O)CNC(=O)CNC(=O)[C@H](CO)NC(=O)CNC(=O)CNC(=O)[C@H](CO)NC(=O)[C@@H](NC(=O)[C@H](CC(C)C)NC(=O)[C@H](CC(C)C)NC(=O)[C@H](C)NC(=O)[C@H](Cc1c[nH]c2ccccc12)NC(=O)[C@H](Cc1ccc(O)cc1)NC(=O)[C@H](Cc1c[nH]cn1)NC(=O)[C@H](CCC(=O)O)NC(=O)[C@H](Cc1ccccc1)NC(=O)[C@@H](NC(=O)[C@H](CC(C)C)NC(=O)[C@@H]1CCCN1C(=O)[C@H](C)NC(=O)[C@H](CCC(N)=O)NC(=O)[C@@H](N)CC(C)C)[C@@H](C)O)[C@@H](C)O)C(=O)N[C@H](C(=O)N[C@@H](CCCCN)C(=O)N[C@@H](CCCCN)C(=O)N[C@@H](CC(C)C)C(=O)N[C@@H](CC(C)C)C(=O)N[C@@H](CCC(=O)O)C(=O)N[C@@H](CO)C(N)=O)[C@@H](C)CC	MDA-MB-231	resazurin		24 h	CC50	> 32 µM
CC(C)[C@H](NC(=O)c1cc(Cl)ccc1O)C(=O)Nc1ccc(F)c(F)c1	A549				CC50	> 10 µM

Some of these lines once more:
Compound	target or system	test	system	conditions	measurement	value
CC[C@H](C)[C@H](NC(=O)[C@H](CCCCN)NC(=O)[C@H](CCCCN)NC(=O)[C@H](Cc1ccc(O)cc1)NC(=O)[C@H](CC(C)C)NC(=O)[C@@H]1CCCN1C(=O)[C@H](C)NC(=O)CNC(=O)CNC(=O)[C@H](CO)NC(=O)CNC(=O)CNC(=O)[C@H](CO)NC(=O)[C@H](CCC(=O)O)NC(=O)[C@H](CC(C)C)NC(=O)[C@H](CC(C)C)NC(=O)[C@H](CCCCN)NC(=O)[C@H](CCCCN)NC(=O)[C@@H](NC(=O)[C@@H](NC(=O)[C@H](CCCCN)NC(=O)[C@H](CCCCN)NC(=O)[C@H](Cc1ccc(O)cc1)NC(=O)[C@H](CC(C)C)NC(=O)[C@@H]1CCCN1C(=O)[C@H](C)NC(=O)[C@H](CCC(N)=O)NC(=O)[C@@H](N)CC(C)C)[C@@H](C)CC)[C@@H](C)CC)C(=O)N[C@H](C(=O)N[C@@H](CCCCN)C(=O)N[C@@H](CCCCN)C(=O)N[C@@H](CC(C)C)C(=O)N[C@@H](CC(C)C)C(=O)N[C@@H](CCC(=O)O)C(=O)N[C@@H](CO)C(N)=O)[C@@H](C)CC	MDA-MB-231	resazurin		24 h	CC50	> 32 µM
CC(C)[C@H](NC(=O)c1cc(Cl)ccc1O)C(=O)Nc1ccc([N+](=O)[O-])cc1Cl	A549				CC50	8.32 µM
CC[C@H](C)[C@@H]1NC(=O)[C@H](CO)NC(=O)[C@H](CCC(=O)O)NC(=O)[C@H](CC(C)C)NC(=O)[C@H](CC(C)C)NC(=O)[C@H](CCCCN)NC(=O)[C@H](CCCCN)NC(=O)[C@H]([C@@H](C)CC)NC(=O)[C@H]([C@@H](C)CC)NC(=O)[C@H](CCCCN)NC(=O)[C@H](CCCCN)NC(=O)[C@H](Cc2ccc(O)cc2)NC(=O)[C@H](CC(C)C)NC(=O)[C@@H]2CCCN2C(=O)CNC(=O)CNC(=O)[C@@H](N)CSSC[C@@H](C(N)=O)NC(=O)CNC(=O)CNC(=O)[C@H]([C@@H](C)O)NC(=O)[C@H](CC(C)C)NC(=O)[C@H](CCC(N)=O)NC(=O)[C@H](C)NC(=O)[C@H](Cc2c[nH]c3ccccc23)NC(=O)[C@H](Cc2ccc(O)cc2)NC(=O)[C@H](Cc2c[nH]cn2)NC(=O)[C@H](CCC(=O)O)NC(=O)[C@H](Cc2ccccc2)NC(=O)[C@H]([C@@H](C)O)NC(=O)[C@H](CC(C)C)NC(=O)CNC(=O)CNC(=O)[C@H](CO)NC(=O)CNC(=O)CNC(=O)[C@H](CO)NC(=O)CNC(=O)CNC(=O)[C@H](CCCCN)NC(=O)[C@H](CCCCN)NC(=O)[C@H]([C@@H](C)CC)NC1=O	K562	resazurin		24 h	CC50	5.1 ± 0.2 µM
C[C@H](NC(=O)c1cc(Cl)ccc1O)C(=O)Nc1ccc([N+](=O)[O-])cc1Cl	A549				CC50	> 10 µM
